Results collected from several papers.
Parts stem from different laboratories: compare values within a part only. Values joined by “and” are separate records of one study, mostly repeats; a detail may differ. Substitutions count along the parent as printed.

Block 1 — observed: ligand displacement; tested at: 10 µM
Target: 5-hydroxytryptamine receptor 2A (HTR2A, Homo sapiens, UniProt P28223)
| SMILES | inhibition [%] |
| --- | --- |
| Cc1cc(Nc2nccc(C)n2)cc(-c2cnc([C@@]3(O)CC[C@H](C(=O)O)C(C)(C)C3)s2)c1 | -4.23 |
| C[C@H](c1ccc(F)cc1)N(Cc1cccc(C(=O)O)c1)C(=O)c1cnc2ccccc2c1 | -0.2 |
| CO[C@H]1CC[C@H](CNc2ccc(S(=O)(=O)NC(=O)c3ccc(N4CCN(CC5=C(c6ccc(Cl)cc6)CC(C)(C)CC5)CC4)cc3Oc3cnc4[nH]ccc4c3)cc2[N+](=O)[O-])CC1 | 12.7 |
| C[C@@H]1CN(c2cc(-c3n[nH]c4ccc(OC5(C)CC5)cc34)ncn2)C[C@H](C)O1 | 2.75 |
| NS(=O)(=O)c1cc(NC(=O)Cc2ccccc2)ccc1Oc1cccc(Cl)c1 | -2.5 |

Block 2 — organism: Sarcocystis neurona; observed: parasite growth; tested at: 10 µM; time: 96 h
| Structure (SMILES) | inhibition [%] |
| --- | --- |
| CNCC[C@@H](Oc1ccccc1C)c1ccccc1 | -13.5 |
| CC(=O)OCC(=O)[C@@]1(O)CC[C@H]2[C@@H]3C[C@H](C)C4=CC(=O)C=C[C@]4(C)[C@H]3[C@@H](O)C[C@@]21C | -8.7 |
| COc1cc(C)nc(-n2nc(C)cc2OC)n1 | 0.111 |
| O=C(NCCO[N+](=O)[O-])c1cccnc1 | -18.6 |
| COc1ccc2c(c1)c(CC(=O)O)c(C)n2C(=O)c1ccc(Cl)cc1 | -6.8 |
| CC(=O)NS(=O)(=O)c1ccc(N)cc1 | -11.6 |
| CN(C)CCOC(c1ccc(Cl)cc1)c1ccccn1 (stereo not shown) | -8 |
| O=S(=O)(O)CCS | -8.3 |

Block 3 — target: CCNB3, cyclin fold, Cln2 fusion (human); method: yeast growth competition, sequencing; matrix: yeast; notes: strong parent motif; baseline: not given; reading: higher = stronger binding; starting sequence: viral docking peptide; KGVKRKLFAEDSS
| Substitution | normalised enrichment score |
| --- | --- |
| KGVKRKLFAEDWS [S12W] | 2.8 |
| KGVKCKLFAEDSS [R5C] | 0.726 |
| KGVKRPLFAEDSS [K6P] | 0.157 |
| KGVKRKLFAEDMS [S12M] | 2.72 |
| KGVKRKLFAEDYS [S12Y] | 2.72 |
| KGVQRKLFAEDSS [K4Q] | 1.03 |
| KGVKRGLFAEDSS [K6G] | 0.699 |
| KGVKRKLFAEDDS [S12D] | 3.69 |
| KGVKAKAFAEDSS [R5A L7A] | 0.215 |
| KGVKRQLFAEDSS [K6Q] | 1.25 |
| KGVKRKLFAEGSS [D11G] | 2.45 |
| KGVKRKLFAGDSS [E10G] | 1.88 |
| KGVKWKLFAEDSS [R5W] | 0.358 |
| KGVKRKLFAEVSS [D11V] | 2.03 |
| KGVKRKLFAHDSS [E10H] | 1.45 |
| KGVKVKLFAEDSS [R5V] | 0.328 |
| KGSKRKLFAEDSS [V3S] | 0.132 |
| KGVKRKGFAEDSS [L7G] | 0.0671 |

Block 4
Compound: CC(C)C[C@@H]1NC(=O)[C@@H](N(C)C(=O)[C@H](CC2CCC2)NC(=O)[C@@H]2C[C@@H](F)CN2C(=O)C2(C(F)(F)F)CC(F)(F)C2)CCCCNC(=O)C2(CC2)NC(=O)[C@H](Cc2cc(Cl)ccc2Cl)N(C)C1=O
| cell line | assay | setting | scale | cell count |
| --- | --- | --- | --- | --- |
| NCI-H446 | Vi-Cell counting | 6 nM, 3 days, added: Mps1 inhibitor 3 nM | baseline: DMSO | 0.895 and 1.02 |
| NCI-H446 | Vi-Cell counting | 2 nM, 3 days, without Mps1 inhibitor | baseline: DMSO | 0.769 and 0.725 |
| MDA-MB-231, doxycycline-inducible E2F1 |  | 200 nM, 6 days, no doxycycline | baseline: DMSO | 0.586 and 0.384 and 0.524 |
| HCC4006 | Vi-Cell counting | 20 nM, 6 days | baseline: DMSO | 0.992 and 1.04 and 0.872 |
| NCI-H446 sgCtrl | dose-response | 125 nM, 6 d | baseline: DMSO-treated | 0.147 and 0.101 and 0.141 |
| NCI-H82 | Vi-Cell counting | 20 nM, 6 days | baseline: DMSO | 0.91 and 1.1 and 1.19 |
| NCI-H1299 | Vi-Cell counting | 600 nM, 6 days | baseline: DMSO | 0.646 and 0.549 and 0.587 |
| A549 | Vi-Cell counting | 60 nM, 6 days | baseline: DMSO | 0.964 and 0.948 and 0.841 |

Other studies, line by line
| Compound | target | assay | setting | scale | measurement | result |
| --- | --- | --- | --- | --- | --- | --- |
| Cc1cc2c(C(N)=O)c(N)n(-c3c(C)ccc(O)c3C)c2nc1C | ABL1 non-phosphorylated human | KINOMEscan | 1000 nM | baseline: control | binding remaining | 0.25% |

For quick reference, copied from above (block 2):
| Structure (SMILES) | inhibition [%] |
| --- | --- |
| CC(=O)NS(=O)(=O)c1ccc(N)cc1 | -11.6 |
| CN(C)CCOC(c1ccc(Cl)cc1)c1ccccn1 (stereo not shown) | -8 |
| O=S(=O)(O)CCS | -8.3 |
